Published values pooled from the literature.
A part holds a random share of what one study measured. Several values in a cell are separate wells, animals, samples, runs or records.

Set 1
Target: Sodium-dependent noradrenaline transporter (SLC6A2, Homo sapiens, UniProt P23975)
Chain of UniProt P23975 (whole entry, looked up): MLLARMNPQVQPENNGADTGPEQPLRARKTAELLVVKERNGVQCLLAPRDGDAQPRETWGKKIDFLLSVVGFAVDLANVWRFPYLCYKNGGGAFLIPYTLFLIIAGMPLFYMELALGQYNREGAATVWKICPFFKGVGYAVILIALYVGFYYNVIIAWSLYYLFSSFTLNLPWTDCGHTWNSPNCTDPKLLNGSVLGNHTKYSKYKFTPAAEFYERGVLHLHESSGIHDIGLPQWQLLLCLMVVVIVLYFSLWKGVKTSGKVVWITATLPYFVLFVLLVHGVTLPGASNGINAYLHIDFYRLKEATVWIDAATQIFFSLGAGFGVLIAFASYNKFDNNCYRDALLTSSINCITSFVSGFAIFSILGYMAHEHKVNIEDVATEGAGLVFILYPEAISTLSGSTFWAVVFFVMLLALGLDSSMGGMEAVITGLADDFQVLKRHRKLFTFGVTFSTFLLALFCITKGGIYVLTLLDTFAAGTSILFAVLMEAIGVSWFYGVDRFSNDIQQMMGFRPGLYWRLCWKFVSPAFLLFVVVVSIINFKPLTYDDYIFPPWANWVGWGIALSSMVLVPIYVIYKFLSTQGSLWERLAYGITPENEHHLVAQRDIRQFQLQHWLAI
Read-out: cell-free assay
Concentration: 10 µM
Structure (SMILES) | inhibition [%]
CC(=O)Nc1ncc(CN2CCC[C@H](Cc3cc(C)nc(C)c3)C2)s1 | 12.7
O=C(NNS(=O)(=O)c1ccccc1)c1cc(-c2ccnnc2)ccc1F | -2.4
CC(C)(C)OC(=O)N1CCCC1CNC1CCC(c2cc(F)ccc2F)(S(=O)(=O)c2ccc(Cl)cc2)CC1 (centres unmarked) | 50.7
C[C@H](NC(=O)Nc1cc2[nH]ncc2c(CO)n1)c1ccccn1 | 25.4
CC(=O)Nc1c(C(C)=O)c(=O)n(C)c2nc(-c3ccc(Cl)cc3Cl)c(-c3ccc(Cl)cc3)cc12 | 15.5
FC(F)(F)c1ccc2c(c1)nc(-c1cccnc1)n2C1CC1 | 17.2
CN(C)CC#Cc1ccc(OCCCc2sc(N3CCc4cccc(C(=O)Nc5nc6ccccc6s5)c4C3)nc2C(=O)O)c(F)c1 | 42.9
O=C(c1ccc(F)cc1)N1CC(COc2ccc(Br)cc2)(C(=O)O)C1 | 16.8
CCC(=NO)C(C)=Cc1ccc(F)c(C)c1 | 1.14
C[C@@H](NC(=O)Nc1cc2[nH]ncc2c(CO)n1)c1ccccc1 | -9.99
Cc1cc(Nc2nccc(C)n2)cc(-c2cnc([C@@]3(O)CC[C@H](C(=O)O)C(C)(C)C3)s2)c1 | -24.3
Cc1ncc(-c2cc(Cl)ccc2F)cc1-n1c(=O)n(CC(N)=O)c2ccccc21 | -13.5
N#Cc1ccc(Nc2ccc3[nH]c(=O)[nH]c3c2)c(Cl)c1 | -2.68
NS(=O)(=O)c1cc(NC(=O)Cc2ccccc2)ccc1Oc1cccc(Cl)c1 | 0.53

Set 2
Cell line: HaCaT
Concentration: 100 µM
Time: 36 h
Compound | viability
C[C@]12CCC(=O)C(O)=C1CC[C@@H]1[C@@H]2CC[C@]2(C)C(=O)CC[C@@H]12 | 81.4%
CCCC(C)(COC(N)=O)COC(=O)NC(C)C (centres unmarked) | 90.3%
CC(O)(CS(=O)(=O)c1ccc(F)cc1)C(=O)Nc1ccc(C#N)c(C(F)(F)F)c1 (centres unmarked) | 39.6%

Set 3
Organism: Plasmodium berghei
Mode: inhibitor
Cells: Huh-7
Strain: GFP-expressing sporozoites, liver stage
Concentration: 10 µM
Time: 24 h
Reference: untreated control
Structure (SMILES) | infection rate
CC(=O)Nc1cc([As](=O)(O)O)ccc1O | 86.4%
C[C@@H]1C[C@@H]([C@H](O)CC2CC(=O)NC(=O)C2)C(=O)[C@@H](C)C1 | 1.28%
CC(CC(C(N)=O)(c1ccccc1)c1ccccc1)N(C)C (centres unmarked) | 101%

Set 4
Organism: Sarcocystis neurona
Read-out: parasite activity
Concentration: 10 µM
Time: 96 h
SMILES | activity class
O=C(O)C(Cl)Cl | inactive
CCC1(c2ccc(N)cc2)CCC(=O)NC1=O (centres unmarked) | inactive
C#CCN(C)[C@H](C)Cc1ccccc1 | inactive

Set 5
Cell line: mouse MPNST tumor cells
Technique: high-content nuclear imaging
Refers to: cell number
Concentration: 10 µM
Time: 12 h
Notes: mean of 2 replicates
Reference: plate mean
Reading: higher = more cells
SMILES | nuclei count
CC12NC(Cc3ccccc31)c1ccccc12 (single isomer, unassigned; (+)) | 1.12 z-score
C1CCc2nnnn2CC1 | 2.77 z-score
C[N+]1(C)[C@@H]2CC[C@H]1C[C@@H](OC(=O)C(CO)c1ccccc1)C2 (some centres unmarked) | 1.94 z-score

Set 6
Compound: CC(C)S(=O)(=O)c1cc2c(Nc3ccc4sc(C5CCCC5)nc4c3)ccnc2cc1OCCO
Technique: CCK-8
cell line | concentration | survival
L929 RIPK3-/- reexpressing RIPK3 K51A | 3.125 µM | 89% and 88% and 85.9% and 93%
L929 RIPK3-/- reexpressing RIPK3 K51A/R69H | 25 µM | 61.1% and 63.3% and 60.1% and 62.3%
L929 RIPK3-/- reexpressing RIPK3 K51A | 6.25 µM | 81.5% and 81.4% and 80.7% and 76.1% and 83.3%

For quick reference, copied from above (set 1):
Structure (SMILES) | inhibition [%]
FC(F)(F)c1ccc2c(c1)nc(-c1cccnc1)n2C1CC1 | 17.2
CC(=O)Nc1c(C(C)=O)c(=O)n(C)c2nc(-c3ccc(Cl)cc3Cl)c(-c3ccc(Cl)cc3)cc12 | 15.5
C[C@H](NC(=O)Nc1cc2[nH]ncc2c(CO)n1)c1ccccn1 | 25.4
